Results gathered from unrelated publications.
Each numbered part is a random draw from the data of one study; scales do not carry over between parts.

Sample 1
Target: Protein C-ets-1 (ETS1, Homo sapiens, UniProt P14921, residues 1-441, full length assumed)
Method: protein-binding microarray
Form: double-stranded DNA, one strand shown
Sample: in vitro
Concentration: not given
Setting: k-mer, scored over probes, only values ≥0.25
Reading: higher = stronger binding
Target sequence (chain): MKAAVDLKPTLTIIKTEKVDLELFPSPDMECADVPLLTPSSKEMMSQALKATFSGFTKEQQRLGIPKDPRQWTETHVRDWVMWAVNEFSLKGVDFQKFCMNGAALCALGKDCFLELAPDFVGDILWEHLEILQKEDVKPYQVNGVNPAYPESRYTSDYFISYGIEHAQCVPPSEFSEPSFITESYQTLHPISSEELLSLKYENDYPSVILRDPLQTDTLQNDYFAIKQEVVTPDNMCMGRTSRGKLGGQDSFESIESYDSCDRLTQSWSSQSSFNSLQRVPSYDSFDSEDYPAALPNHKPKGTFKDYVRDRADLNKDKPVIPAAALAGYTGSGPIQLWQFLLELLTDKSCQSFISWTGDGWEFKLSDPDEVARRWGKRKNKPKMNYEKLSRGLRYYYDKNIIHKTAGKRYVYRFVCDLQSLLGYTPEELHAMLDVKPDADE
Oligonucleotide | E-score
CTTCCCCA | 0.304
AATCCGGC | 0.344
CCGGTCCC | 0.296
CCCCGGAA | 0.469
GTCCCGGA | 0.377
ACGACCGG | 0.325
AGGAAGAG | 0.38
GGACGCAC | 0.258
TACGGATA | 0.289
ATTTCCAC | 0.285
CCATTTCC | 0.447

Sample 2
Target: Sal-like protein 4, full length isoform A (SALL4, Homo sapiens, UniProt Q9UJQ4, residues 1-1053)
Chain of UniProt Q9UJQ4 (whole entry, looked up): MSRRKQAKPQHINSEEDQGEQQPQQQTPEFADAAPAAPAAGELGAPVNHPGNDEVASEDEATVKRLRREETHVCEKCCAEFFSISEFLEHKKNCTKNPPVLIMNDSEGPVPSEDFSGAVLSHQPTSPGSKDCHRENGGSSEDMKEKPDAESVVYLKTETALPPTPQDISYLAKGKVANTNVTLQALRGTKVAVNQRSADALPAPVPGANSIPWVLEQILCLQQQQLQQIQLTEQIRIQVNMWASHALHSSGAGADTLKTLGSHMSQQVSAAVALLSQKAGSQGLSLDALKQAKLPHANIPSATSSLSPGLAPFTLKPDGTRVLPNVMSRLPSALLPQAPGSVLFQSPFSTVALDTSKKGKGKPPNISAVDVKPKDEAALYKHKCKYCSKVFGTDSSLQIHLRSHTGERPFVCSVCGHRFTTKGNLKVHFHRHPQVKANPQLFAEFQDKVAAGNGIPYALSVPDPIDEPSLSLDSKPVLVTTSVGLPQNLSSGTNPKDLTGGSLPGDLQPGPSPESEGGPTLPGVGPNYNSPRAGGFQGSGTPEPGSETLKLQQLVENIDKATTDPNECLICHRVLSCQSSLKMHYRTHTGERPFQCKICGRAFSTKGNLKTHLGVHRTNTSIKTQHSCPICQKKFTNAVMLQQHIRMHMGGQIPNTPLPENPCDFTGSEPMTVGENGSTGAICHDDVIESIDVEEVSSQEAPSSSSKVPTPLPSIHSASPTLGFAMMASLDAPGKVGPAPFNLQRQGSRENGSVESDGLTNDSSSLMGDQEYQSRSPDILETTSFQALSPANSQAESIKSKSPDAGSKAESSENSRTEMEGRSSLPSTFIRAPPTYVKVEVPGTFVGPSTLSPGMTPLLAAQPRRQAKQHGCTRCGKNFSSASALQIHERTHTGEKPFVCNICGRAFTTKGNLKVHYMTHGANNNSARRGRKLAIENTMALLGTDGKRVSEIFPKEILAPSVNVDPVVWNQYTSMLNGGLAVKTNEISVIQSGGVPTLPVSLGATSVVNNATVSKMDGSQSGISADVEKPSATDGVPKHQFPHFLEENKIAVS
Method: universal PBM
Form: double-stranded DNA, one strand shown
Sample: in vitro
Concentration: 600 nM
Setting: 8-mer, flanks averaged, mean of replicates
Reading: higher = stronger binding
Oligonucleotide | E-score
GAACTACA | -0.0862
AAGAGAGG | -0.0148
ACATGGAG | -0.118
CGGAGTAC | -0.186
AGGCGCGC | -0.173
CAAAAAAG | 0.195
TAGCCTCA | -0.0156
GAGTCAGC | -0.221
CGACGCAA | -0.269

Sample 3
Substance: PhoQ, residues 284 288 289 292 302 303 TNASYF
Method: Sort-seq
Item: YFP reporter
Sample: E. coli
Setting: PhoQ-PhoP variant library
Together with: 10 µM Mg2+
Relative to: high Mg2+ state
Reading: higher = stronger signaling
target | fold induction
PhoP, residues 12 14 15 18 19 TQCLL (Escherichia coli, UniProt P23836) | 14.2
PhoP, residues 12 14 15 18 19 ICWRQ (Escherichia coli, UniProt P23836) | 4.12
PhoP, residues 12 14 15 18 19 VHTVL (Escherichia coli, UniProt P23836) | 8.24

Sample 4
Target: Histone acetyltransferase KAT6A, both winged helices, GST fusion (KAT6A, Homo sapiens, UniProt Q92794, residues 1-181)
Method: protein binding microarray
Form: double-stranded DNA, one strand shown
Sample: in vitro
Concentration: not given
Setting: 8-mer, flanks averaged, mean of 2 arrays, mostly near background
Relative to: not given
Reading: higher = stronger binding
Construct (chain): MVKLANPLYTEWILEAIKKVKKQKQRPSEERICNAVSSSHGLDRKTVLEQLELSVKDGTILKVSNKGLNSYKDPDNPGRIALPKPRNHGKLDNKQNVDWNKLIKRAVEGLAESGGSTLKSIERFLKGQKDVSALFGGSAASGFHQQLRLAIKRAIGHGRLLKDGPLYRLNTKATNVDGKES
Oligonucleotide | E-score
CCAACTAG | -0.0808
CTTTAAAG | -0.184
GTGACCGA | 0.111
AAGTGCAG | -0.194
GGCGTGAA | 0.0989
AATCTGAG | -0.0372
GATCTAGA | -0.11
CTAATGGA | -0.106
GGAATCAC | 0.0314

For quick reference, copied from above (sample 4):
Oligonucleotide | E-score
GGCGTGAA | 0.0989
AATCTGAG | -0.0372
GATCTAGA | -0.11
CTAATGGA | -0.106
GGAATCAC | 0.0314
